Measured values of several laboratories.
Parts stem from different laboratories: compare values within a part only. Changes are numbered by the printed parent chain.
UniProt O00750, sequence (whole entry, looked up): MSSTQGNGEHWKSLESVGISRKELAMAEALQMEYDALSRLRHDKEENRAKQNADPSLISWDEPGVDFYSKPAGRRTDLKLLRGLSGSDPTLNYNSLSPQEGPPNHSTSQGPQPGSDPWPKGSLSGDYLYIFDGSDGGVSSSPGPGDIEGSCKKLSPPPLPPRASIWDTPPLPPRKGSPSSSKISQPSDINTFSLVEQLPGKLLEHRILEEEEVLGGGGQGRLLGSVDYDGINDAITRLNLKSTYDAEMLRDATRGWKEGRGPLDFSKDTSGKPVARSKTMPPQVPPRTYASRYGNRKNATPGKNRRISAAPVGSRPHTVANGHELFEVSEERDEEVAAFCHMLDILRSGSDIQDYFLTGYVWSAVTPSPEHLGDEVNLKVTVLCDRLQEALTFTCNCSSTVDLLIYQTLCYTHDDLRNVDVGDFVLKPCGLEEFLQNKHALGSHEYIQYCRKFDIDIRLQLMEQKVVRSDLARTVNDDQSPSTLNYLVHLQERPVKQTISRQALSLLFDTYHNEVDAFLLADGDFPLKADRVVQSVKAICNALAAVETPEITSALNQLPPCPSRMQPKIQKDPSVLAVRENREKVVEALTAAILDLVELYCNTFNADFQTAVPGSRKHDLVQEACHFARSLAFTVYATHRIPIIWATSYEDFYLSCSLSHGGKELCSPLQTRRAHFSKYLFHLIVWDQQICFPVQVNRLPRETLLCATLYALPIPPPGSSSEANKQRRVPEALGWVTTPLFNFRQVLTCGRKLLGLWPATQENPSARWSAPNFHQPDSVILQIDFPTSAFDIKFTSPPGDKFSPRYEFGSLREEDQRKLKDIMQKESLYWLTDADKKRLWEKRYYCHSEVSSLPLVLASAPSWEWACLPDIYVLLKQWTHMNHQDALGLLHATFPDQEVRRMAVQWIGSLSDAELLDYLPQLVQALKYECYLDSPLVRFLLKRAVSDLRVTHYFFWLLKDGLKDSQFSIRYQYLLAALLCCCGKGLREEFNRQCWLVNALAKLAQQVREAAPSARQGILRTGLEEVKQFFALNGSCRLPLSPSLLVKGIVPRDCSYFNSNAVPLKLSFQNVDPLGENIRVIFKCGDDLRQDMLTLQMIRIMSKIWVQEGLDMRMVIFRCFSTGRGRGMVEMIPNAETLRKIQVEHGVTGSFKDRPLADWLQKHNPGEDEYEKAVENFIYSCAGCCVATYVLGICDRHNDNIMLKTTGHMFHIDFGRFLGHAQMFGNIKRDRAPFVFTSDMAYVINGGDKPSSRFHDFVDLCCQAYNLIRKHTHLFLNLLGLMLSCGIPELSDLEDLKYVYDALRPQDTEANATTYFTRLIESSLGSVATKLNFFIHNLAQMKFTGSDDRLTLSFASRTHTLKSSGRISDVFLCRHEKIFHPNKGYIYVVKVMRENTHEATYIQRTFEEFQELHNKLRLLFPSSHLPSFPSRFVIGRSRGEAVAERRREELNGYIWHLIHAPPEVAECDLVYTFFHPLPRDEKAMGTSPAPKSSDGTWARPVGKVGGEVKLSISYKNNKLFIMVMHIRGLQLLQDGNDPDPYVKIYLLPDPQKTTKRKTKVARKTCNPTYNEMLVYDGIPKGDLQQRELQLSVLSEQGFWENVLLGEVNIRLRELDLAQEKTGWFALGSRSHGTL
UniProt Q5S007, sequence (whole entry, unmodified, looked up): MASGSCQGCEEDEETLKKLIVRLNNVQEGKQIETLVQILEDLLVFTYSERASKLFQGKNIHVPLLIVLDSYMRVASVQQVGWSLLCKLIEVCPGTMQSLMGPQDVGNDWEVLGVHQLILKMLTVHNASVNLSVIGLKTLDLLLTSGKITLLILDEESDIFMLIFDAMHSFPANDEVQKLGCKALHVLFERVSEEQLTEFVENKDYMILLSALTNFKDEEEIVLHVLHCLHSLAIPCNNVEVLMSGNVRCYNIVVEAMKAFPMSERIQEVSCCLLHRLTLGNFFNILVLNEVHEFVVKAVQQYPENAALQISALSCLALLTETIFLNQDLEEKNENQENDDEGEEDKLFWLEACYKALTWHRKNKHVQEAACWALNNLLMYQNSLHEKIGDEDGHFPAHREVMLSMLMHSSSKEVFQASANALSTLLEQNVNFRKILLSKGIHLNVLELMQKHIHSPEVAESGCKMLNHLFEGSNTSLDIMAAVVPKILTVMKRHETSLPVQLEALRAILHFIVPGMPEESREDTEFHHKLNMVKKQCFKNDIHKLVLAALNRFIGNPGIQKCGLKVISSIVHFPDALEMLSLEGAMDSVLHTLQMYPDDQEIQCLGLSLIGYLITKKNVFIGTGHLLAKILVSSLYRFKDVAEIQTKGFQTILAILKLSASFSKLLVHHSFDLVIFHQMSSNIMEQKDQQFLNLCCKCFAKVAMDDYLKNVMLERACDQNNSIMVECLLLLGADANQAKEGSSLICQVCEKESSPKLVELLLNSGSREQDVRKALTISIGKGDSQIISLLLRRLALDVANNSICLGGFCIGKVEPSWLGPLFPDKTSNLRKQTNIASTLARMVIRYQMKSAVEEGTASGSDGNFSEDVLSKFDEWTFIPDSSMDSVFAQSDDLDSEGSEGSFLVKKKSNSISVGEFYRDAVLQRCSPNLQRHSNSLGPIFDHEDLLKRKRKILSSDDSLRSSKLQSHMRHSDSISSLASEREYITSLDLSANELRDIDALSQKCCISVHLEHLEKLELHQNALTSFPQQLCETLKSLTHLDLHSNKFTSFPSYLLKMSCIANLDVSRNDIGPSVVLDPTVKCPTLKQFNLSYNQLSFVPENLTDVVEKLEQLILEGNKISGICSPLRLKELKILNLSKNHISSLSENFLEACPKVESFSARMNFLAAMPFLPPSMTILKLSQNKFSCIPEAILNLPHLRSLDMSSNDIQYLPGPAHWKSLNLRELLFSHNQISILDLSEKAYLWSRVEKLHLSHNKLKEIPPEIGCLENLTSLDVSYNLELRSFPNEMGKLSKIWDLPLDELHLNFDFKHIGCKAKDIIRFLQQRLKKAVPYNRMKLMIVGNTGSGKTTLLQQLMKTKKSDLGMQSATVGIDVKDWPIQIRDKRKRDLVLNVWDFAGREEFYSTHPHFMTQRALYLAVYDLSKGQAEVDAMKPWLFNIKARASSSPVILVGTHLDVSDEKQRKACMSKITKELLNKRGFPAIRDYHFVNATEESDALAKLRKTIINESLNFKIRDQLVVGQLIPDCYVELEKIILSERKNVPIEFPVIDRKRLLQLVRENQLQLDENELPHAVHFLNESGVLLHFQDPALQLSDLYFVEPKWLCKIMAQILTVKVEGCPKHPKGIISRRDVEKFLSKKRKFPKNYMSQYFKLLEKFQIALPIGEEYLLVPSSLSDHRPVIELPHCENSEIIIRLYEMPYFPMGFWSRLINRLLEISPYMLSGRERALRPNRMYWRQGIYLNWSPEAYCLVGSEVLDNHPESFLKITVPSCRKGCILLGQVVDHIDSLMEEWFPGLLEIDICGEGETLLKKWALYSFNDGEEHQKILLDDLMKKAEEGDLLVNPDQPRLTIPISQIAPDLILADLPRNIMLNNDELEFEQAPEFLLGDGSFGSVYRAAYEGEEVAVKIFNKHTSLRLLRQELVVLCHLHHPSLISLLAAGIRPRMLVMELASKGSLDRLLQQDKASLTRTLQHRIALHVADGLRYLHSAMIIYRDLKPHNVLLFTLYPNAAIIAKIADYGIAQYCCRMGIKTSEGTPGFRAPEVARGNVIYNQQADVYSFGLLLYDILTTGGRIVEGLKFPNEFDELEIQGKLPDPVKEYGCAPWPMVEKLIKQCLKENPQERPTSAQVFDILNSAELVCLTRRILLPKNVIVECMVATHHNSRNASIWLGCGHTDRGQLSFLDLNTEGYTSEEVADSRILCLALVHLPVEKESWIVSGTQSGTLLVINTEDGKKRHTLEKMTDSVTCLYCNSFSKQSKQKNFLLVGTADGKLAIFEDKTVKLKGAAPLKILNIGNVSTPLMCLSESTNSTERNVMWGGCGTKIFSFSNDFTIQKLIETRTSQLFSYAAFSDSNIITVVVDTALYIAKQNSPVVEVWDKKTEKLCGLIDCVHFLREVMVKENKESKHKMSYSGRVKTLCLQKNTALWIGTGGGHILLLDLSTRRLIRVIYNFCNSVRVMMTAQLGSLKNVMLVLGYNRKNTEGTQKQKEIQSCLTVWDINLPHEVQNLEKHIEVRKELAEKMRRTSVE

Set 1 — method: EMSA with sequencing; form: double-stranded DNA, one strand shown; medium: in vitro; concentration: 10 and 20 nM; reference: negative control set to 0; direction: higher = stronger binding
Target: Hepatocyte nuclear factor 3-alpha (Foxa1, Mus musculus, UniProt P35582, residues 1-468, full length assumed)
Notes: whole designed probe, mean of two concentrations, ends assumed
Residues (chain): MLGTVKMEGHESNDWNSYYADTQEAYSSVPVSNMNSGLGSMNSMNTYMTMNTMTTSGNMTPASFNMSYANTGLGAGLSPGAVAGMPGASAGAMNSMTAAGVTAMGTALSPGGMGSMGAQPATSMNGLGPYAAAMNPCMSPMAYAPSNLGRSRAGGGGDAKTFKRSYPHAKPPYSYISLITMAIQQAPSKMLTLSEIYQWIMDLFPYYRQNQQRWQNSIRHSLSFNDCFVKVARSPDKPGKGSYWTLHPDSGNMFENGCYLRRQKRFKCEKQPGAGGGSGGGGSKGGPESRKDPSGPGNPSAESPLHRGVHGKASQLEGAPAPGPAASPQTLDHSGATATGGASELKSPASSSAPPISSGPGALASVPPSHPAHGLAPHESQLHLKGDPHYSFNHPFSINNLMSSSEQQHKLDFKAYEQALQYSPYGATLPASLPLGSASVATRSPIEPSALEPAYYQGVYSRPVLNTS
Oligonucleotide | normalised bound fraction
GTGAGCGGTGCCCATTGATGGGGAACTCTAGTGCTCACAGAACGGCATCGCCGCGGCTCTTCTTCGCTGTGTGTCTGTGCCAAGTCTATCCAACGCCGCCAAAGTCCCCTCTGCTCTCAGCAAACACAGGTGAAGCTCTTGCCTTCTTAAATCCTTGACTTGACCTTGCTGTCCCATAAGTCCTGAATTTCTCCTTTTCACGAGGAAGCTCTTGGAACATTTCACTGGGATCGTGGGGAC | 0.0617 ratio
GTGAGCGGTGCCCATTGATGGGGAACGTGTTCAAGGAGGAGCTTTATTAACTCAGCACTTCTAACAATTTCCTAGGTACTTATAAGACATTTCCAAAGTCAAGTTAATGAGCTGCAGAGTAATCTAGAGTCTCTCGTAGTTTCTGAAGTTCGAGAAGAAATTCTACAGAAAGAGGTAAGAAATGGCCAAAATATTGGGCTAAAATAAGTTTTTCTTAGGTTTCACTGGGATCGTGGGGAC | -0.0427 ratio
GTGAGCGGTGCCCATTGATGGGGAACCCCACCTAGCATAAAATCAAGTAAAGGAGATAACAAATACACCTAAATAAATAATCAAAAATTCTAGAGTGGCTTGAAATCTACATACTACTAAGTAAATATGGAGATGCTGAGAGTAGAACAATATTTATATATGATCAGAGGAATAAAGGAAGTGTCACAGAAAAAATAATATTCCAACTGAGCCATATGATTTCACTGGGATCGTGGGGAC | 0.532 ratio
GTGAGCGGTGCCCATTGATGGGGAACAAGGCTTTTATTAGACATGTGCTTCCTCTACACAGAGTAAATGTACTTGAATTTAAAGTGTCTGTAGAGATTGTTGAGTAATCTAAAATTTGCCTGTTTACATTGCCATATTTAGAGAAATCCAAGTTCAGTGAGATGAATAGGAAAGATATGCTCAAGTTACTGTACTTCAAATGTATACTGATCTTCTTTCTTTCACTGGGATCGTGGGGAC | 0.221 ratio
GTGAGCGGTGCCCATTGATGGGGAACGTTTTTGCACTGACGTGCACAGGCAAGCCCATATCTCTGCCTCTAAGCACATACTCTCTTTCCAAAGGTTGTGTAATGAGTGAGTCAGAGCAGAGTACTCTTAAGAAAGGAAAGAGGGCAAGGCAGGGCAGGAATTCAGCTCAATGAAGCCGCGGAGCCTCCATTTAAAAATGATACTAATGAGCCCACAGAATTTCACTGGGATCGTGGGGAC | -0.0608 ratio

Set 2 — read-out: cell-free assay; method: competition with immobilised ligand; concentration: 1 µM
Structure (SMILES): O=C(N1CCS(=O)(=O)CC1)N1C[C@H](c2ccc(OC(F)(F)F)cc2)C[C@H](c2nc(C3CC3)no2)C1
target | remaining binding [%]
LRRK2 (Homo sapiens, UniProt Q5S007, G2019S) | 100
CDK7 (Homo sapiens, UniProt P50613) | 100
CDK18 (Homo sapiens, UniProt Q07002) | 0
CAMK2D (Homo sapiens, UniProt Q13557) | 100
PIK3C2B (Homo sapiens, UniProt O00750) | 100

Set 3 — target: NFE2L2, bZIP domain (human); method: DHFR protein complementation; medium: yeast; reference: wild-type JUN-FOS pair; direction: higher = stronger binding
Notes: single substitutions, most at no-binding floor
Parent: JUN, bZIP domain (human); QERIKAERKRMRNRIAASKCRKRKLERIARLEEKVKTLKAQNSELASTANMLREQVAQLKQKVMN; partner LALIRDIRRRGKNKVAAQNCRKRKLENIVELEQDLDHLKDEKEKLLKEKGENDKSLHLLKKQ
Change | binding fitness [natural log]
T37G | -1.44
K36F | -1.45
S43D | -1.55
Q55T | -1.54
A49C | -1.41
T37H | -1.25
E54V | -1.51
A40G | -1.41

Set 4 — read-out: enzyme activity; action: inhibitor; concentration: 0.5 µM; reference: control
Target: Fibroblast growth factor receptor 3 (FGFR3, Homo sapiens, UniProt P22607)
UniProt P22607, sequence (whole entry, looked up): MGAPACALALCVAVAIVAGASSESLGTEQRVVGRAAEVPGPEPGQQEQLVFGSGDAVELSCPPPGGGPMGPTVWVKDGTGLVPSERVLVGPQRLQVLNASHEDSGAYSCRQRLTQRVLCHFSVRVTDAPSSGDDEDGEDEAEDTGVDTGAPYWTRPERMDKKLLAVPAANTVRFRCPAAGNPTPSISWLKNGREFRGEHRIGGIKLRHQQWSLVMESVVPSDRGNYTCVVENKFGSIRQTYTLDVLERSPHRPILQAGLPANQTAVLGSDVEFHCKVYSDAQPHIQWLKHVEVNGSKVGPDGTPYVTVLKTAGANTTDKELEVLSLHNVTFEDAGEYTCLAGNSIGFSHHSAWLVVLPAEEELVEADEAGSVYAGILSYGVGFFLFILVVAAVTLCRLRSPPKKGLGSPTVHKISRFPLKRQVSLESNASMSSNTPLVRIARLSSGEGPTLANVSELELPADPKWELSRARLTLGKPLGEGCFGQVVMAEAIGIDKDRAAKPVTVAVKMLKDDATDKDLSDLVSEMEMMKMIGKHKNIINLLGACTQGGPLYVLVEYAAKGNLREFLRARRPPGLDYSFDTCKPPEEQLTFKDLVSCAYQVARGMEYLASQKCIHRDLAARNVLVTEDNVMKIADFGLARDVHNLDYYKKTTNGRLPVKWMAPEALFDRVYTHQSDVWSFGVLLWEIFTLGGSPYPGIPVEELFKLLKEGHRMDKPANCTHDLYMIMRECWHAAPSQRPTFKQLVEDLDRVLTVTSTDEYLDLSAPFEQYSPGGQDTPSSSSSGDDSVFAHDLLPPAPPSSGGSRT
Structure (SMILES) | remaining activity [%]
O=C1NC(=O)C(c2cn(CCCn3ccnc3)c3ccccc23)=C1Nc1ccccc1 | 100
CNC(=O)c1cc(Oc2ccc(NC(=O)Nc3ccc(Cl)c(C(F)(F)F)c3)cc2)ccn1 | 89.5
O=C(Nc1cccc(Nc2cc(Nc3cccc(C(F)(F)F)c3)ncn2)c1)C1CC1 | 102
CCOC(=O)c1c(C)[nH]c(/C=C2\C(=O)Nc3ccccc32)c1C | 80.4
OCC(O)CCON=C1C(c2c(O)[nH]c3ccccc23)=Nc2ccccc21 (stereo not drawn) | 45.8
CO[C@H]1C[C@@H]2CC[C@@H](C)[C@@](O)(O2)C(=O)C(=O)N2CCCC[C@H]2C(=O)O[C@H]([C@H](C)C[C@@H]2CC[C@@H](O)[C@H](OC)C2)CC(=O)[C@H](C)/C=C(\C)[C@@H](O)[C@@H](OC)C(=O)[C@H](C)C[C@H](C)/C=C/C=C/C=C/1C | 102
N#CC(C#N)=C(N)/C(C#N)=C/c1ccc(O)cc1 | 98.9
Cc1ccc(Nc2nccc(N(C)c3ccc4c(C)n(C)nc4c3)n2)cc1S(N)(=O)=O | 39.3
O=C(O)c1ccc2c3c1cccc3c(=O)n1c3ccccc3nc21 | 92.9
COc1ccc(C(=O)Nc2sc3c(c2C(N)=O)CCCC3)cc1OC | 98.3
COc1ccc(CNC(=O)Nc2ncc([N+](=O)[O-])s2)cc1 | 108
O=S(=O)(c1cccc2cnccc12)N1CCCNCC1 | 94.4

For quick reference, copied from above (set 4):
Structure (SMILES) | remaining activity [%]
CNC(=O)c1cc(Oc2ccc(NC(=O)Nc3ccc(Cl)c(C(F)(F)F)c3)cc2)ccn1 | 89.5
O=C(O)c1ccc2c3c1cccc3c(=O)n1c3ccccc3nc21 | 92.9
